Results pooled from the literature.
Every numbered part comes from another study and shows a few of its results, in no order. Several values in a cell are separate wells, animals, samples, runs or records.
Chain of UniProt P08913 (whole entry, looked up): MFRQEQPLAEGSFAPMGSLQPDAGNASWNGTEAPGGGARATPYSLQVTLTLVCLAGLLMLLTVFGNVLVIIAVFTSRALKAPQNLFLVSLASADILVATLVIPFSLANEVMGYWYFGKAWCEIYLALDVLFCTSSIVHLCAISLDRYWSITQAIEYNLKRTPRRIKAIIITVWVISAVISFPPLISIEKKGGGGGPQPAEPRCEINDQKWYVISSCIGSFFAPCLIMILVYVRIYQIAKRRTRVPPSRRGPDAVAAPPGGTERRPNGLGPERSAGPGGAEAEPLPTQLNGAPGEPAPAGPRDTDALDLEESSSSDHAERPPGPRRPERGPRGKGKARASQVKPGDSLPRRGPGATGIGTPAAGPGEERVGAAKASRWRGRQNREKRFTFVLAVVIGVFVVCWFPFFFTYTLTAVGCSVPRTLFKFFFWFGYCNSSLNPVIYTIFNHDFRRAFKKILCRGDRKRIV
Chain of UniProt O43781 (whole entry, looked up): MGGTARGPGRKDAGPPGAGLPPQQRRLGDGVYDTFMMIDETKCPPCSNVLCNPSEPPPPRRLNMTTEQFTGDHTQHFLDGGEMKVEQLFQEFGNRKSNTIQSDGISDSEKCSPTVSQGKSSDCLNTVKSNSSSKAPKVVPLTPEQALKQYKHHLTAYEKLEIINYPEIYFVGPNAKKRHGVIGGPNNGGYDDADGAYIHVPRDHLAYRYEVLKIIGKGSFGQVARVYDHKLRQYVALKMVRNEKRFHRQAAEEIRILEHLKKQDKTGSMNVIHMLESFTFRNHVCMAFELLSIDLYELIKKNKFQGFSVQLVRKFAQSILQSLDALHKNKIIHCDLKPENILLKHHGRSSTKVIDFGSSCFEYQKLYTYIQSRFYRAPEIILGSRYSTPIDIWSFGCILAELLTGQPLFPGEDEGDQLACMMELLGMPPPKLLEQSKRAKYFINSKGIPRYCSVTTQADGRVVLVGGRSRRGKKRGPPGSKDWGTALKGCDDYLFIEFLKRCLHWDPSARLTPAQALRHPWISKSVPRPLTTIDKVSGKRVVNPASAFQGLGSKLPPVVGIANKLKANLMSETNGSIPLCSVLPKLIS
Chain of UniProt Q9H2X6 (whole entry, looked up): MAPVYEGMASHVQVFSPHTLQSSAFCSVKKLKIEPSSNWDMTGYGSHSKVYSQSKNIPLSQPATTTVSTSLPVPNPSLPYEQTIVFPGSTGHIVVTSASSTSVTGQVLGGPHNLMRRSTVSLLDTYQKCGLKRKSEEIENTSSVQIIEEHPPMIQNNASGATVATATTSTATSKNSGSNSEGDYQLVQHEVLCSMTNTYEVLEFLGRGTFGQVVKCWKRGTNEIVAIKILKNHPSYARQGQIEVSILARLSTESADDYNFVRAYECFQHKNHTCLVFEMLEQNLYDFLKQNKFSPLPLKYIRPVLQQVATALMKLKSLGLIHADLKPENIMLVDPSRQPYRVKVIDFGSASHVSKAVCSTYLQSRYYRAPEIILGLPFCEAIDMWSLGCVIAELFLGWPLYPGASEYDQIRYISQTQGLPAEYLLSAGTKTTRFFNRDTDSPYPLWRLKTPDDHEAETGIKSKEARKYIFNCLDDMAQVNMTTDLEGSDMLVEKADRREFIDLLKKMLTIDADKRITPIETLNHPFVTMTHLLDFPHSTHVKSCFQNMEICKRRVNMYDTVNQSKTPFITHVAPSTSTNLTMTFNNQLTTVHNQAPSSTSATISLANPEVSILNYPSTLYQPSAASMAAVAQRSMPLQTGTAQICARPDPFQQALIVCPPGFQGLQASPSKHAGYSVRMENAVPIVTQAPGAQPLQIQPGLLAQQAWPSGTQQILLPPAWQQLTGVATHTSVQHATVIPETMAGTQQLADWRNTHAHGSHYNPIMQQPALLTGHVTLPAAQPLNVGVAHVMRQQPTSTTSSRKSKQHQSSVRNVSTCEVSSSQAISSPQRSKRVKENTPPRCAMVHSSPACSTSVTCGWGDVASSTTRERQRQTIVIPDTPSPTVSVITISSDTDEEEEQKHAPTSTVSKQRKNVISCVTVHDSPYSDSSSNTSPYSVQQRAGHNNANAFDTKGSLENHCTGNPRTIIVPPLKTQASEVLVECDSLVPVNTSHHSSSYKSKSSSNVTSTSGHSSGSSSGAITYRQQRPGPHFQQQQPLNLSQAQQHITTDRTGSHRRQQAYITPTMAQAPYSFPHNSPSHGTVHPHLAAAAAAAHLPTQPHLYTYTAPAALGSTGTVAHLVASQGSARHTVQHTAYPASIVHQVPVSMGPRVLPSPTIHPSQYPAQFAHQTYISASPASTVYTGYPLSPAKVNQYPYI
Chain of UniProt Q99720 (whole entry, looked up): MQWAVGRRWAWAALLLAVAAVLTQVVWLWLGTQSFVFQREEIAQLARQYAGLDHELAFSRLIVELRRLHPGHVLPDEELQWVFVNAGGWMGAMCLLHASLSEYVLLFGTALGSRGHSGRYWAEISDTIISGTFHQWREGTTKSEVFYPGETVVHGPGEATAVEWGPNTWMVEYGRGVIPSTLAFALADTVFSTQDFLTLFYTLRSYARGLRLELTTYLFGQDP

Block 1 — effect on: enzyme activity; action: inhibitor; tested at: 77 µM; reference: untreated
Target: DNA polymerase theta, ATPase domain (POLQ, Homo sapiens, UniProt O75417)
Chain of UniProt O75417 (whole entry, unmodified, looked up): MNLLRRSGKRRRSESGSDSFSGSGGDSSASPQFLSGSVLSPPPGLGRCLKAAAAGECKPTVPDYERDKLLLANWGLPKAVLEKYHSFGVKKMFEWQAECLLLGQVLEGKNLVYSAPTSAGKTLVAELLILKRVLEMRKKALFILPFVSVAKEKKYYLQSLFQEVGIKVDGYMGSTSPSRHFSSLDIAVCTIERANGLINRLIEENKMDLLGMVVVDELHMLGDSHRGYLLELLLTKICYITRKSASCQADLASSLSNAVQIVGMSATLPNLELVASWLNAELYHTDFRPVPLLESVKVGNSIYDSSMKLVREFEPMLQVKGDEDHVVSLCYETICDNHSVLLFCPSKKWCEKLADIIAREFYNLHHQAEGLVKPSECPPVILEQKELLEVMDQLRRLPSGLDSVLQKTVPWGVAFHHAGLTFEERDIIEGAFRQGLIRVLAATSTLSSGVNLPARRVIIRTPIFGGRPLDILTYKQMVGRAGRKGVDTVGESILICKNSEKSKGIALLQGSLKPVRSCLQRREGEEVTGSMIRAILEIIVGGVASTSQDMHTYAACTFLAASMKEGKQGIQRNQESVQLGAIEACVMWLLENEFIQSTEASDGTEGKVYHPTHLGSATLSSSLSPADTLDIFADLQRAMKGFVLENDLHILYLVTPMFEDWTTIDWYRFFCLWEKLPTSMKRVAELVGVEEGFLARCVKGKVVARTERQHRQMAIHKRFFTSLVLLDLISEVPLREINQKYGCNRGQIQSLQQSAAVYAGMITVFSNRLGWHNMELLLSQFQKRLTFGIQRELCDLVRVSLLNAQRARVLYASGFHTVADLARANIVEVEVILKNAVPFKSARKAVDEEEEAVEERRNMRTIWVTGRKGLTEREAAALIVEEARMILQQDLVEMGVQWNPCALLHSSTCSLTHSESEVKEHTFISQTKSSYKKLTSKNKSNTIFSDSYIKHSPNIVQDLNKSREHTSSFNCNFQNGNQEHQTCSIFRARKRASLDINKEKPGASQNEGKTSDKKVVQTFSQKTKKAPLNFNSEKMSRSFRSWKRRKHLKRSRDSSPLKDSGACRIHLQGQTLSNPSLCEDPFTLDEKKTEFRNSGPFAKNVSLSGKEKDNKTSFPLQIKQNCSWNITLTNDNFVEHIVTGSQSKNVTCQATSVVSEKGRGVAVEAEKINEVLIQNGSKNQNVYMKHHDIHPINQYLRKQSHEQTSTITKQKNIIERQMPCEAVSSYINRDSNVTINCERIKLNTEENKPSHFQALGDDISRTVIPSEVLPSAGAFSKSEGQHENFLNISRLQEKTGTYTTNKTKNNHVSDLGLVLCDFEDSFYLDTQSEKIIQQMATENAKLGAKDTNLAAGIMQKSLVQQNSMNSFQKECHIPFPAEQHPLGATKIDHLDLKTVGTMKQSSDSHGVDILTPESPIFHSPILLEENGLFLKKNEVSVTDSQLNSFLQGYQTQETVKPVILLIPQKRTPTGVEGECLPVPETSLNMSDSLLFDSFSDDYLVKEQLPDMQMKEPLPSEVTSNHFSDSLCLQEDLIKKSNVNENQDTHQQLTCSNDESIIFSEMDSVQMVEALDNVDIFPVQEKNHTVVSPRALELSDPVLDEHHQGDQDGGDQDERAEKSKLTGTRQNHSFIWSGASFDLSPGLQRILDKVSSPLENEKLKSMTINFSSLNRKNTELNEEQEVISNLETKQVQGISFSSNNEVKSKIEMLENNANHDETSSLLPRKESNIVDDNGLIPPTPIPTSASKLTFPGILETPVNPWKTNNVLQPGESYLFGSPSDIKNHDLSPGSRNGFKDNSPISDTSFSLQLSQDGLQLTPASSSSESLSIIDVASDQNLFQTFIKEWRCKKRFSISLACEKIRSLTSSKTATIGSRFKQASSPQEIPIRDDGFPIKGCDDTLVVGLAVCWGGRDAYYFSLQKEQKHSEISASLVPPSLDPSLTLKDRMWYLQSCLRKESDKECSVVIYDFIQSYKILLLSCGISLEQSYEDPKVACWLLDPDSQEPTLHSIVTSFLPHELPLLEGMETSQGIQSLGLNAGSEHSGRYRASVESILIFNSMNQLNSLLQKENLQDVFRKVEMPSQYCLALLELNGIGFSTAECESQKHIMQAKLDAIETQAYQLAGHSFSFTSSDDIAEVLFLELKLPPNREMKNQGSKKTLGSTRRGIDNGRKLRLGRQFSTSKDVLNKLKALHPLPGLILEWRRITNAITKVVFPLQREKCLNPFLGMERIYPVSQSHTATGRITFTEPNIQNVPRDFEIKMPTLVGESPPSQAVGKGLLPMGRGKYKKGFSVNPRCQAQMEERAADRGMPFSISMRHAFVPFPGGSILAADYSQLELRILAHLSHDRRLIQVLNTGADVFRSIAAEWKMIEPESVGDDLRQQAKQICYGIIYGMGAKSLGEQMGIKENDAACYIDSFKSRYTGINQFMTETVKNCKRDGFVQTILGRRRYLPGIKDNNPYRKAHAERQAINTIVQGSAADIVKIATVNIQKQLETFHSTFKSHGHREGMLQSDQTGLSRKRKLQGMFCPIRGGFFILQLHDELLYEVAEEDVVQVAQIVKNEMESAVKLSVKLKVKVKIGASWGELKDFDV
For `CC1CN(S(=O)(=O)c2cccc3cnccc23)CCN1` (stereo not shown), the remaining activity was 96.7%.
`O=C(c1ccc(Nc2nccc(-c3cc4ccccc4s3)n2)cc1)N1CCC(N2CCCC2)CC1` gave a remaining activity of 95.4% and 115%.
The remaining activity of `Brc1c(NC2=NCCN2)ccc2nccnc12` is reported as 98.4%.
For `C=C1[C@H](CO)[C@@H](O)C[C@@H]1n1cnc2c(=O)[nH]c(N)nc21`, the remaining activity was 92.6%.
The remaining activity of `CCC1=C(C)CN(C(=O)NCCc2ccc(S(=O)(=O)NC(=O)N[C@H]3CC[C@H](C)CC3)cc2)C1=O` is reported as 97.9% and 104%.
`COc1ccnc2[nH]cc(C(=O)C(=O)N3CCN(C(=O)c4ccccc4)C[C@H]3C)c12` has a remaining activity of 97.1%.
With `Cn1c(=O)c2c(nc(/C=C/c3cccc(Cl)c3)n2C)n(C)c1=O` the remaining activity was 93.3%.
`CO[C@@]1(NC(=O)Cc2cccs2)C(=O)N2C(C(=O)O)=C(COC(N)=O)CS[C@@H]21` gave a remaining activity of 101%.

Block 2
SMILES: CC(C)n1cnc(-c2ccc(F)cc2)c1-c1ncc(C(=O)Nc2ccc(N3CCN(C)CC3)cc2)[nH]1
item: AST increase; patients with idiopathic pulmonary fibrosis; 30 mg twice daily, trial, with: standard of care therapy — “patients with adverse event”: 0%.
For Phase 2a trial, item: hypoalbuminaemia; human, idiopathic pulmonary fibrosis; 30 mg once daily, grade 2: “patients with adverse event” read 0%.
For Phase 2a trial, item: hypocalcaemia; human, idiopathic pulmonary fibrosis; 60 mg once daily, grade 2: “patients with adverse event” read 0%.
For Phase 2a trial, item: blood pressure increased; human, idiopathic pulmonary fibrosis; 60 mg once daily, grade 5: “patients with adverse event” read 0%.
Phase 2a trial, item: eosinophilia myalgia syndrome; human, idiopathic pulmonary fibrosis; all compound arms, grade 4 — “patients with adverse event”: 0%.
For item: alkaline phosphatase increased; patients with idiopathic pulmonary fibrosis; dose not given, trial, compound arms pooled: “patients with adverse event” read 0%.
Phase 2a trial, item: hypertriglyceridaemia; human, idiopathic pulmonary fibrosis; 30 mg once daily, grade 5 — “patients with adverse event”: 0%.
Phase 2a trial, item: blood lactate dehydrogenase increased; human, idiopathic pulmonary fibrosis; all compound arms total, grade 5 — “patients with adverse event”: 0%.
The “patients with adverse event” was 0% (item: skin papilloma, maximum grade 4; idiopathic pulmonary fibrosis patients; dose not given, all compound arms pooled).
The “patients with adverse event” was 0% (Phase 2a trial, item: haemorrhoids; human, idiopathic pulmonary fibrosis; 60 mg once daily, grade 3).
It gave 0% for “patients with adverse event” (Phase 2a trial, item: hyperlipidaemia; human, idiopathic pulmonary fibrosis; all compound arms total, grade 4).

Block 3 — effect on: enzyme activity; action: inhibitor; tested at: 0.5 µM; reference: control
Structure (SMILES): COc1ccc2c(c1)c(C1=C(c3c[nH]c4ccccc34)C(=O)NC1=O)cn2CCCN(C)C
The remaining activity was 85.5% (TSSK2 (Homo sapiens, UniProt Q96PF2)).
For MAPKAPK3 (Homo sapiens, UniProt Q16644): remaining activity read 92.3%.
The remaining activity was 92% (WNK3 (Homo sapiens, UniProt Q9BYP7)).
It gave 107% for remaining activity (ABL1 (Homo sapiens, UniProt P00519)).
The remaining activity was 81% (DYRK3 (Homo sapiens, UniProt O43781)).
For Cyclin-dependent kinase 4, with cyclin D3 (CDK4, Homo sapiens, UniProt P11802): remaining activity read 95.5%.
The remaining activity was 94.5% (EPHA4 (Homo sapiens, UniProt P54764)).
For RPS6KA6 (Homo sapiens, UniProt Q9UK32): remaining activity read 4.52%.
For AXL (Homo sapiens, UniProt P30530): remaining activity read 98.7%.
For Cyclin-dependent kinase 1, with cyclin B (CDK1, Homo sapiens, UniProt P06493): remaining activity read 94.4%.
The remaining activity was 96.3% (HIPK2 (Homo sapiens, UniProt Q9H2X6)).
For HIPK4 (Homo sapiens, UniProt Q8NE63): remaining activity read 101%.

Block 4 — tested at: 10 µM
Compound: CO[C@@H](C)c1c(Nc2ccc([C@@H](N(C)C(=O)C3CCS(=O)(=O)CC3)C(F)(F)F)cc2)cnc2cc(Cl)nn12
The inhibition was -5.92% (DRD3 (Homo sapiens, UniProt P35462); binding, radioligand binding).
HTR6 (Homo sapiens, UniProt P50406); binding, radioligand binding — inhibition: -10.2%.
It gave 9.74% for inhibition (HTR2B (Homo sapiens, UniProt P41595); binding, radioligand binding).
The inhibition was -13.9% (HRH3 (Homo sapiens, UniProt Q9Y5N1); binding, radioligand binding).
It gave 7.57% for inhibition (CHRM5 (Homo sapiens, UniProt P08912); binding, radioligand binding).
HTR5A (Homo sapiens, UniProt P47898); ligand displacement — inhibition: -23.6%.
For HTR1E (Homo sapiens, UniProt P28566); ligand displacement: inhibition read -16.7%.
It gave 5.1% for inhibition (ADRA2A (Homo sapiens, UniProt P08913); binding, radioligand binding).
DRD4 (Homo sapiens, UniProt P21917); binding, radioligand binding — inhibition: -14.1%.
The inhibition was -3.44% (ADRA1A (Homo sapiens, UniProt P35348); binding, radioligand binding).
It gave 57.1% for inhibition (TMEM97 (Homo sapiens, UniProt Q5BJF2); binding, radioligand binding).
It gave 56.8% for inhibition (SIGMAR1 (Homo sapiens, UniProt Q99720); binding, radioligand binding).
HTR1D (Homo sapiens, UniProt P28221); binding, radioligand binding — inhibition: -3.07%.
DRD2 (Homo sapiens, UniProt P14416); binding, radioligand binding — inhibition: -4.3%.
The inhibition was 11.4% (HTR1B (Homo sapiens, UniProt P28222); binding, radioligand binding).

Repeated from above (block 3):
The remaining activity was 94.5% (EPHA4 (Homo sapiens, UniProt P54764)).
For RPS6KA6 (Homo sapiens, UniProt Q9UK32): remaining activity read 4.52%.
For AXL (Homo sapiens, UniProt P30530): remaining activity read 98.7%.
For Cyclin-dependent kinase 1, with cyclin B (CDK1, Homo sapiens, UniProt P06493): remaining activity read 94.4%.
The remaining activity was 96.3% (HIPK2 (Homo sapiens, UniProt Q9H2X6)).
